Assay results gathered from unrelated publications.
“And” joins repeats or separate records; there may be more than shown. ± gives the spread as reported.
UniProt P53779, sequence (whole entry, looked up): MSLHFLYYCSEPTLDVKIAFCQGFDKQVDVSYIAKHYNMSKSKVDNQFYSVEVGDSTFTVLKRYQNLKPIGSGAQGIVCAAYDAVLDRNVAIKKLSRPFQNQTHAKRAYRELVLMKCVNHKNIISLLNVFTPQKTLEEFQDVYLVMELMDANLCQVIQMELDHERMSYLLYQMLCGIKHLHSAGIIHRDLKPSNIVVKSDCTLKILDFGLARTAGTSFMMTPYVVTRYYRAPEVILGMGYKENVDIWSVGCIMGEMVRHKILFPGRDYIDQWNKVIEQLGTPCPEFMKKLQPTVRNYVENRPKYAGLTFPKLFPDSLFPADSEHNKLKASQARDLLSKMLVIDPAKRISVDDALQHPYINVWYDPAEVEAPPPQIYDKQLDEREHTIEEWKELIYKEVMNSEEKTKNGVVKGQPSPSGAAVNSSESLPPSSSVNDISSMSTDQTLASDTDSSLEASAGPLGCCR

COc1ccc(CNC[C@@](O)(COCc2ccccc2)[C@@H]2CC[C@@H](C)C[C@H]2OCc2ccccc2)cc1 gave an inhibition of 96.6% (MDA-MB-231; cell growth or viability, MTT; 30 µM, 72 h).
The inhibition of Cc1cc(C)nc(SCC(=O)Nc2ncc(Cc3cccc4ccccc34)s2)n1 is reported as 27.4 ± 8.7% (PC-3M-luc; colony formation, colony forming; 1 µM).
C[C@@H]1CC[C@@H]([C@](O)(CNCc2ccccc2F)COCc2ccccc2)[C@H](OCc2ccccc2)C1 has an inhibition of 94.4% (MDA-MB-231; cell growth or viability, MTT; 10 µM, 72 h).
Cc1cc(C)nc(SCC(=O)Nc2ncc(Cc3cccc(OCc4cn(Cc5ccc(C#N)cc5)nn4)c3)s2)n1 gave an inhibition of 10.8 ± 4.3% (PC-3M-luc; colony formation, colony forming; 1 µM).
The IC50 of Cc1nn(-c2cccc(N)c2)c(=O)c2cnc(Nc3ccc(N4CCNCC4)cc3)nc12 is reported as greater than 10 µM (Mitogen-activated protein kinase 10 (MAPK10, Homo sapiens, UniProt P53779); enzyme activity, inhibitor).
For O=C(N/N=C/c1cc[n+](Cc2ccccc2)c2ccccc12)c1ccc2ccc(C(=O)N/N=C/c3cc[n+](Cc4ccccc4)c4ccccc34)nc2n1, the ΔTm was 13.2 ± 0.2 °C (MYC parallel G4 DNA; FRET melting; 1 µM, DNA 0.2 µM, with: duplex DNA competitor 10 µM).
The IC50 of CNS(=O)(=O)Nc1nccc(Cc2c(C)c3ccc(Oc4ncccc4F)cc3oc2=O)c1F is reported as greater than 1 µM (LC-2-ad; cell viability, CellTiter-Glo; 7 days).
With CC(C)(COP(=O)(O)OP(=O)(O)OC[C@H]1O[C@@H](n2cnc3c(N)ncnc32)[C@H](O)[C@@H]1OP(=O)(O)O)[C@@H](O)C(=O)NCCC(=O)NCCSCCC(=O)N[C@@H](CO)C(=O)NCC(=O)N[C@@H](CCCNC(=N)N)C(=O)NCC(=O)N[C@@H](CCCCN)C(=O)NCCCC[C@H](NC(=O)CC[C@@H]1NC(=O)[C@@H](CCCNC(=N)N)NC(=O)[C@H](CCCNC(=N)N)NC(=O)[C@@H](CCCNC(=N)N)NC(=O)[C@H](CCCNC(=N)N)NC(=O)[C@H](Cc2csc3ccccc23)NC(=O)[C@@H](Cc2ccccc2)NC(=O)[C@H](Cc2ccccc2)NC1=O)C(N)=O the inhibition was roughly 40% (A549; N-cadherin expression, Western blot; 10 µM, 2 days).
With COc1cc(C(=O)N2CC[C@@H](O)[C@@H](N)C2)cc2nc(-c3cc4cccnc4n3CC3CC3)n(C)c12 the inhibition was 31.1% and 27.3% and 45% and 49% (human neutrophils; protein citrullination, inhibitor, flow cytometry, refers to: citrullinated proteins; 3.16 µM, with: ionomycin).
The inhibition of Cc1nc2c(F)cc(-c3nc(Nc4ccc(C(=O)NCCCCCC(=O)NO)cc4)ncc3F)cc2n1C(C)C is reported as 48.6% (4T1; cell growth or viability, CCK-8; 0.3 µM, 48 h).
With COc1ccc(CNC[C@@](O)(COCc2ccc(OC)cc2)[C@@H]2CC[C@@H](C)C[C@H]2OCc2ccc(OC)cc2)cc1 the inhibition was 97.1% (MDA-MB-231; cell growth or viability, MTT; 10 µM, 72 h).
With CC(C)C[C@H](NC(=O)[C@H](CO)NC(=O)[C@@H](NC(=O)CNC(=O)[C@@H](N)CCCCN)C(C)C)C(=O)N[C@@H](CO)C(=O)N[C@@H](Cc1ccc(O)cc1)C(=O)N[C@@H](CCCNC(=N)N)C(=O)NCCCC[C@H](NC(=O)[C@H](CCCNC(=N)N)NC(=O)[C@H](Cc1ccc(O)cc1)NC(=O)[C@H](CO)NC(=O)[C@H](CC(C)C)NC(=O)[C@H](CO)NC(=O)[C@@H](NC(=O)CNC(=O)[C@@H](N)CCCCN)C(C)C)C(=O)NCC(=O)NCC(=O)N[C@@H](CS)C(=O)O the inhibition was 59% (4T1; cell invasion, Matrigel Transwell; concentration not given, 24 h, with: CXCL12 200 ng/mL; baseline: PBS).
The inhibition of COc1ccc(CNC[C@@](O)(COCc2ccc(F)cc2)[C@@H]2CC[C@@H](C)C[C@H]2OCc2ccc(F)cc2)cc1 is reported as 98.5% (MDA-MB-231; cell growth or viability, MTT; 10 µM, 72 h).
For COC1CN([C@H]2CC[C@H]([C@@]3(C)Oc4c(Cl)cc(C(=O)NCc5c(SC)cc(C)[nH]c5=O)c(C)c4O3)CC2)C1, “log2 fold change” read 0.0554 (RNA-seq, refers to: TLCD2 mouse homolog; mouse, HT-1376 xenograft, whole blood; dose not given; baseline: vehicle).
For Cc1cc(C)nc(SCC(=O)Nc2ncc(Cc3cccc(OCc4cn(-c5ccc(Cl)cc5)nn4)c3)s2)n1, the inhibition was 42.4 ± 0.8% (PC-3M-luc; colony formation, colony forming; 25 µM).
C[n+]1ccc(/C=N/NC(=O)c2cncc(C(=O)N/N=C/c3cc[n+](C)cc3)n2)cc1 has a ΔTm of 0.3 ± 0.4 °C (MYC parallel G4 DNA; FRET melting; 1 µM, DNA 0.2 µM, with: duplex DNA competitor 10 µM).
For COCCn1cc(COc2cccc(Cc3cnc(NC(=O)CSc4nc(C)cc(C)n4)s3)c2)nn1, the inhibition was 13.5 ± 10.8% (PC-3M-luc; colony formation, colony forming; 1 µM).
Cc1nc2c(F)cc(-c3nc(Nc4ccc(CNC(=O)CCCCCC(=O)NO)cc4)ncc3F)cc2n1C(C)C gave an inhibition of 57.2% (4T1; cell growth or viability, CCK-8; 0.3 µM, 48 h).
For Cc1ncsc1-c1ccc(C(C)NC(=O)C2CC(O)CN2C(=O)C(NC(=O)CCCCCCCCCCN2CCCC(Nc3ncc(Cl)c(Nc4ccccc4S(=O)(=O)C(C)C)n3)C2)C(C)(C)C)cc1 (stereo not shown), “log2 fold change” read -1.5 (22Rv1; RNA-seq, refers to: ST6GAL1 mRNA; concentration not given; baseline: DMSO).

For quick reference, copied from above:
With COc1cc(C(=O)N2CC[C@@H](O)[C@@H](N)C2)cc2nc(-c3cc4cccnc4n3CC3CC3)n(C)c12 the inhibition was 31.1% and 27.3% and 45% and 49% (human neutrophils; protein citrullination, inhibitor, flow cytometry, refers to: citrullinated proteins; 3.16 µM, with: ionomycin).
For Cc1ncsc1-c1ccc(C(C)NC(=O)C2CC(O)CN2C(=O)C(NC(=O)CCCCCCCCCCN2CCCC(Nc3ncc(Cl)c(Nc4ccccc4S(=O)(=O)C(C)C)n3)C2)C(C)(C)C)cc1 (stereo not shown), “log2 fold change” read -1.5 (22Rv1; RNA-seq, refers to: ST6GAL1 mRNA; concentration not given; baseline: DMSO).
The IC50 of CNS(=O)(=O)Nc1nccc(Cc2c(C)c3ccc(Oc4ncccc4F)cc3oc2=O)c1F is reported as greater than 1 µM (LC-2-ad; cell viability, CellTiter-Glo; 7 days).
